Measured values of several laboratories.
Numbered parts are unrelated; each lists some results of a single study.

Study 1
Target: RING finger protein unkempt homolog, zinc fingers 1-6, GST-SBP tag (UNK, Homo sapiens, UniProt Q9C0B0, residues 30-357)
Technique: RNA Bind-n-Seq
Form: RNA
Medium: in vitro
Tested at: not given
Notes: RNA with constant flanks, ends assumed
Reference: input RNA pool
Reading: higher = stronger binding
Measurement: bound/input enrichment
Constant ends, left off below: GGGAGUUCUACAGUCCGACGAUC … CAACAGAGGAUUGAGCAUCA
Construct (chain): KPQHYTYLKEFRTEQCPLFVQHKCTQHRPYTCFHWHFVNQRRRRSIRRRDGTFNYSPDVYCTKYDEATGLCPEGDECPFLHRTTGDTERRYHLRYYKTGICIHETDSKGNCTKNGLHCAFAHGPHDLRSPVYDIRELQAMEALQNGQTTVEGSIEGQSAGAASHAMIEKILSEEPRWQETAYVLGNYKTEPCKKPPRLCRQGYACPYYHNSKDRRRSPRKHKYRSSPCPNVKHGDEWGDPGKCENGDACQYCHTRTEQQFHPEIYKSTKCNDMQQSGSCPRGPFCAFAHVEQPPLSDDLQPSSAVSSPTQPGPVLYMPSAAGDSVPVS
AGGAGAAAAAUCAUCUUAUCAGACGAAGGCAAAAUGUAUGGUAGAAAUGAAUUGACCGCCAGAUACAUCAAACUCAGGACGGGAAAGACAAGGACCAGGAAGCAGGUGUCUAGUCACAUU: 0.244 ratio
GGAAAUCUAGACCUCCAAGUGUAUGCAGCAGAGUCUCCUCCAUCUUGAAACAAACAAAACAUCCGGCUCCUGUUGUAUCUUGGUUUAGUAACAGGCCCUUAAUUAACUUAUUUGUACAUG: 0.622 ratio
CCCGUGUCGAGAGUUUAUUCUAGGGACAGGAAUCAAAAAUGCGGUGCGUCUUUCUACGUGAACCGGAUUUUGUGGCUGGCCAGAUACACUGCAUCAUCUUUUUCAUCAUUUUUAGUUCAA: 1.95 ratio
CGGGUCGGAGACUACGUUUAUUUUGAGAAUUCCUCCAGCAACCCGUACCUCAUCAGACGGACCGAGGAGCUCAACAAGACUGCAAGUGGCAAUGUGGAAGCAAAAGUCGUCUGCUUUUAC: 0.14 ratio
UAGAGCUAGAUUCAAUCAGGUGUCUGAAAUGUGAGUUAAACAUUACUUUAUCCUUUGGUGCCGUUCUUAUUAUUUUCCAUUUAUUGUGCCUCUGGCAGCAGUGUUCCCUUUGAAAGGCCC: 1.69 ratio
CUUGUCUACCAUAUUGGCCUCACCCCAGCCAAACUUCCUGACCUUGUGGAAAACAACCCUUCCGUCGCUAUAGAAAUGUUGCUGAAAUUAAUGCAGUCAAGCCAGAUCACUGAGUAUUUC: 0.688 ratio
GCAGAGCUUGAUACACUGAACGAAGACUCCUACAAAGACAGCACCCUCAUCAUGCAGUUGCUCCGAGACAACUUAACAUUAUGGACAUCAGACAGUGCAGGAGAAGAAUGUGAUGCAGCA: 0.174 ratio
UUCCAUUUAGCUUACAUGUAAAUGUAAUUAUUUAAAACACACACACUGCUCUGCGUUGUACCGUUUUUCCUUUUUUGUAUGUAACAGAACACAUUUCAGAUUGUAUUUAAUUUAAAUAUU: 8.18 ratio
ACGAGCUGAUGGAUUGACGUGCGGGCUGCUUAGCCCAGACCGCCGCCCUCGCGCUCGCGCCUCCGACUGGAAUUGGCUGUCUCGGGGCUCUGGCCGCCGGCCUCUCCUCCGCGUUUUCCU: 0.0428 ratio
GGAAUUCAACCUGUUAUAGAUAAAUUAAGGGAACAUGAAAAUUCAACACUAGACAGGCAUUCCGACUUUUUUGAAAUGCUCCGAAAUGAAGAUGAACUAGAAUUUGCCAAAAGAUUUGAA: 0.511 ratio
CUGGCAUCAGUGAAGAUUUCCAAGGUGAAAUAUGUUAUCUGGUCGGCAGACAUGUCUCAUGCCGCGUUACUGGCCAAGCAUGCCAUUGUGAUCUGUAACCGCAAGCUGGAUGCUCUGUGU: 0.104 ratio

Study 2
Target: RNA binding protein fox-1 homolog 2, RRM domain, GST-SBP tag (RBFOX2, Homo sapiens, UniProt O43251-10, residues 100-194)
Technique: RNA Bind-n-Seq
Form: RNA
Medium: in vitro
Tested at: 365 nM
Notes: natural RNA segment, single round, ends assumed
Reference: no-protein control
Reading: higher = stronger binding
Measurement: RBNS enrichment (R)
Constant ends, left off below: GGGAGUUCUACAGUCCGACGAUC … UGGAAUUCUCGGGUGCCAA
Target sequence (chain): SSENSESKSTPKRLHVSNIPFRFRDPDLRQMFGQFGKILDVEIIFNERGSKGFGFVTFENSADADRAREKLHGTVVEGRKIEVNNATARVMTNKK
UUUGUAGUCUAGUCUAUUCUGAAGAUAUUUGAUUAAUAUAUUUCUAAGAAGACCACUAGUCCCAUGAAGUCUCACCUUGUUGACUUCCACCAGAACAAAACCUGUUAAUU: 0.257
UCCCUGCUGCAUCUGCAUGAAGCCCCUGCUUUUUAGGCCUCACUCCCAUCAGAACCCUGCCUGCCCACCUGCAACUCCCCCCCAACAAUGCCAUUCCCACUUGCCCCAGA: 15.5
UAACCAUGGGAUUCAGAAGAGCACUAACCAGUGCAGCAUAGAAAUAGGAAUAGCGUAGGAAUAGAAAUUUGCCCAAGACUUUGAUAGUCAUCUGGUUUCAGUUCAGCAAG: 0.566
GGUUGCAGCUGCCAUGCUCAGAAUGCGUUUUGAGAGCUGAAGCAAGGUGCUUGCAGUCACCUGAGGCCGUCCGUGUGGCCCAGGGCCCCAGCUGCCUUUAGGGCCCCCAU: 0.446
UUCAGUAGCUUUAAAUUCUCAGGUCAGAACAUAACAUUUCUCAUUUGUUAAAAGCAGCAAGAAGCCUGGUAAAACUGUGACUUUUCCCCAAAUGUCAAUCUUUAUUAGAA: 0.446
UUUUGACUAAUUAGAAAUUCAGGCUGCUUGGGAUAAUGAGACAAGGACCAGAACCUCCUCCCCACCUGUGGCCUGGCCAAAACCCCCACUUGUGGUCUGAAUGUUCUCCU: 0.432
GCCUUAAGGUUUUCCUAAGGAAUUAACAGGUCUUUUCAUCUUGUAUAGUUUUUACAGUGUGAAUCCAACAUUGGCUCAGUAUGCUAAUGUGACAGUCAACAGUUAUCUAA: 0.31
GUUUAUGACAAUAUUGAUAAGCGGCCUCGACUAGACUUGGCUCCGGCUCUUUCCUAGGCCGCACAAGCUUCUGCAGCAAUCUCAGAGACUGAAACAGCUGAGAGCCUAUU: 0.372
GGGCUGCUUCUCCCUAACCAUCCAUUGUGCAGACUUCUCAUCUAAAAAGGUUGGUGGCUUUUGCUUGGGAUCAGUGCUCUGCUAACGCCCUUGCUGGUCUCUCCACACAU: 0.248
UCGGAGUACUUGAAGAAGGCCCACGGGCGGCACGGAGUUCCUGAGCCCUUUCUGUAGUGGGGGAAAGGUGGCUGGACCUCUGUUGGCUGAGAAGAGCAUCCCUUCAGCUU: 1.54
CCUAGCAUAUGUGAAGCCAUGGGUUCUAUUCUCAGAACUGAAAAAAAAAAAAAUUCCAUCCUCGUAUCUCAUGUGUACACAUAUGAACACACACACUGCACAUGUAACUG: 0.853
GGCGUCCCCGUCUCCGUUGGGGCCAUUAGAAUGAGGCAGACACCAGGCCACUCUAGAAGCCGAGCCGUCACACCUCAGGCGUGUGCGGGGCGGGGACGGGGGGUCUCCUG: 0.348

Study 3
Target: Histone acetyltransferase KAT6A, winged helix 2, GST fusion (KAT6A, Homo sapiens, UniProt Q92794, residues 85-181)
Technique: protein binding microarray
Form: double-stranded DNA, one strand shown
Medium: in vitro
Tested at: not given
Notes: 8-mer, flanks averaged, mean of 2 arrays, mostly near background
Reference: not given
Reading: higher = stronger binding
Measurement: E-score
Construct (chain): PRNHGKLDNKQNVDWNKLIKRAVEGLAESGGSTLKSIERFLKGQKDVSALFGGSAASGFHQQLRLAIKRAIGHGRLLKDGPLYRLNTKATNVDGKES
CACGACCA: 0.0695
ATACGCGG: -0.127
ACGATAAC: -0.111
AATCTTAA: -0.0923
AAACGATC: 0.0702
ACTCGTCT: -0.0107
GAGGTTCA: 0.0127
AGAATCCC: 0.119
ATCTGGAG: 0.0528
ACACGAGA: -0.0915
GGATAGTA: -0.041
CTCTCAGA: -0.0476
GACGAGGA: 0.0951
ATCAACTC: 0.0847
ACTCGCTG: 0.174
CCCTCAGG: -0.0277
CGGCTTCA: 0.175
AAATAAGT: -0.098
ACATACGC: -0.194
ACCACTGA: -0.0305
AAGGTAAA: 0.0846
AACGGCGG: 0.0365
ATTACATC: 0.0252
ACTCGCGG: 0.147
CCGGCTCC: 0.242

Study 4
Target: Centromere-binding protein 1, full length, N-terminal tag (CBF1, Saccharomyces cerevisiae, UniProt P17106, residues 1-351)
Sequence of UniProt P17106 (whole entry, looked up): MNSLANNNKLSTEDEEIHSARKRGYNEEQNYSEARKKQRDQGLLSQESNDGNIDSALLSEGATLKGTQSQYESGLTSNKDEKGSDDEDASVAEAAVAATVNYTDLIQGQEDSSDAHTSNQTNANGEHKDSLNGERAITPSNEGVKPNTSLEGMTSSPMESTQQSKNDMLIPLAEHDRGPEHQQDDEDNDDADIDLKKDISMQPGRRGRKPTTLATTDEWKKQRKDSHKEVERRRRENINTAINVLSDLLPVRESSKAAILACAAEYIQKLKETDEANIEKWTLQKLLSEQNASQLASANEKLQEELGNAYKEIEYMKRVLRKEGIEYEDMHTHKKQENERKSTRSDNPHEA
Technique: protein-binding microarray
Form: double-stranded DNA, one strand shown
Medium: in vitro
Tested at: 0.8 µM
Notes: whole 60-bp probe, no competitor
Reading: higher = stronger binding
Measurement: fluorescence intensity
Constant ends, left off below: … GTCTTGATTCGCTTGACGCTGCTG
CTAAGCTTATCAAAGCAGATCACAACGATTATATTC: 502 a.u.
GAAGACGAGAGTAAGTGCGTGTCAATCTAGTTGTAG: 520 a.u.
GAATTCATACCTTATGTCACCATCTAACGCCTTTAG: 523 a.u.
GAAACGATGTTAGCGCACATGCTACATGACTTGTAG: 749 a.u.
CTATACAAGTTCAATGGTGGTGCAAGGATTGAATTC: 536 a.u.
CTAGCCAAGCATTATCAGGTGCCCATAAATAACTTC: 1270 a.u.
CTAAAGTCCATCCTTCACATGACTTGAATCCCTTTC: 1570 a.u.
GAACTAATCGGCATTGATGTTACACAAGGGAAATAG: 540 a.u.
GAAAATATCAAACGTGTTGTATTACGGGCTCGATAG: 579 a.u.
GAAGTGCTTGCTGTGAAGGTGGTGCGTACTGTTTAG: 515 a.u.
CTAATAATCAGCTCTGTCGTGACTGATAAATGCTTC: 1050 a.u.
GAATTATTCTTTTTTCATATGATTTCTTATTTATAG: 511 a.u.
GAAGCTTTTAATTATCACGTTGCCACTTTAACATAG: 2360 a.u.
CTAGAATATCCGGGTGATGGGCTGGATTGGCAATTC: 483 a.u.
GAAAGATTACTCGTGCACGCAAAAATAAATGTTTAG: 816 a.u.
GAAACAAAAGCAAATCACATGTGCACATACGTCTAG: 4150 a.u.
GAATTGATCAATCGTGACTAGTTCGCGTTTTGATAG: 791 a.u.

Study 5
Target: Sal-like protein 4, full length isoform B (SALL4, Homo sapiens, UniProt Q9UJQ4-2, residues 1-616)
Technique: universal PBM
Form: double-stranded DNA, one strand shown
Medium: in vitro
Tested at: not given
Notes: 8-mer, flanks averaged, mean of replicates
Reading: higher = stronger binding
Measurement: E-score
Target sequence (chain): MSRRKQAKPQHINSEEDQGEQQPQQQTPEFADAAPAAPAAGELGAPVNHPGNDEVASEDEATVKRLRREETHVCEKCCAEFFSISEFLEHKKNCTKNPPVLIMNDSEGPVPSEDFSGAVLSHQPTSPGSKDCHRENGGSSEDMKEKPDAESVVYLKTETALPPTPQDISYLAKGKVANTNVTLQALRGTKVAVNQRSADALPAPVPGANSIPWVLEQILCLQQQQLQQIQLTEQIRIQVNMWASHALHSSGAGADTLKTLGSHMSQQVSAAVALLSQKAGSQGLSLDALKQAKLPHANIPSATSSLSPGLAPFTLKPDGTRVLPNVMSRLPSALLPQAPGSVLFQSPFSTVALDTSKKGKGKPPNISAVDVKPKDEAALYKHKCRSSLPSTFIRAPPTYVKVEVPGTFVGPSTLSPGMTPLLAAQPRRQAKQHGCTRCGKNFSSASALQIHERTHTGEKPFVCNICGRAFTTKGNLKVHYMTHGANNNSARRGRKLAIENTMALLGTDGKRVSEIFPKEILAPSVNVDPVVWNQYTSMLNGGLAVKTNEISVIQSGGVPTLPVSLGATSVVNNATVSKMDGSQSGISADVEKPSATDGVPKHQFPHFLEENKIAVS
AAATACTG: 0.114
CGTAACGA: -0.0453
ATAACAAC: 0.267
CGCCACTA: -0.062
CTGTTTCA: 0.0883
TCATACCA: 0.256
ATCGTGAG: -0.0845
ACTACTGA: -0.0534
CTGAGCAC: -0.234
GTAGTCAA: 0.0528
AGGCGACA: -0.274
AAGCCGGA: -0.176
AGCAATTG: 0.108
AGGTGTCA: 0.0788
CACCTGAG: -0.0441
ACTGGGTG: -0.283
CCCCGAAA: -0.0486
AATTGTTA: 0.345
CTAACAGA: -0.00546
CACGAATA: 0.251
ATATAGCG: 0.229
CACTTCTG: -0.0915
CCCCAGGG: -0.403
AGGGATGA: -0.0287
CCGGCCCG: -0.409

Repeated from above (study 4):
GAATTGATCAATCGTGACTAGTTCGCGTTTTGATAG: 791 a.u.
CTAATAATCAGCTCTGTCGTGACTGATAAATGCTTC: 1050 a.u.
CTAGAATATCCGGGTGATGGGCTGGATTGGCAATTC: 483 a.u.
CTAGCCAAGCATTATCAGGTGCCCATAAATAACTTC: 1270 a.u.
GAAAATATCAAACGTGTTGTATTACGGGCTCGATAG: 579 a.u.
GAAGACGAGAGTAAGTGCGTGTCAATCTAGTTGTAG: 520 a.u.
GAATTCATACCTTATGTCACCATCTAACGCCTTTAG: 523 a.u.
GAAGTGCTTGCTGTGAAGGTGGTGCGTACTGTTTAG: 515 a.u.
GAAACGATGTTAGCGCACATGCTACATGACTTGTAG: 749 a.u.
CTATACAAGTTCAATGGTGGTGCAAGGATTGAATTC: 536 a.u.
GAACTAATCGGCATTGATGTTACACAAGGGAAATAG: 540 a.u.
